Experimental data collected from several papers.
WT1: WT1 323-438 (Homo sapiens, UniProt P19544)
Sequence of UniProt P19544 (whole entry, looked up): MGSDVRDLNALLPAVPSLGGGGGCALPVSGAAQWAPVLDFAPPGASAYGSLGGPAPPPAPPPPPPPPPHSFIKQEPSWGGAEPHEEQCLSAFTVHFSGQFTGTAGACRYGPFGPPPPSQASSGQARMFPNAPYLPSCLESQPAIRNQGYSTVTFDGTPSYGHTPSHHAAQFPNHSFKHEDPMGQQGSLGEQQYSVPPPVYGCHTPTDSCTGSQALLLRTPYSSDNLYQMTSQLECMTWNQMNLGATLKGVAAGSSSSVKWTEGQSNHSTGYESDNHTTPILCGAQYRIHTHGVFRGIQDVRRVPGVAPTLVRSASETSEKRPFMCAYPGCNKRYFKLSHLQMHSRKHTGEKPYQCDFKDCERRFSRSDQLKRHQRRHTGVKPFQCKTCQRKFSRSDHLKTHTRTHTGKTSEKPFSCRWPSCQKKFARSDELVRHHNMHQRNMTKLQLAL
SART3: SART3 697-786 (Homo sapiens, UniProt Q15020)
Sequence of UniProt Q15020 (whole entry, looked up): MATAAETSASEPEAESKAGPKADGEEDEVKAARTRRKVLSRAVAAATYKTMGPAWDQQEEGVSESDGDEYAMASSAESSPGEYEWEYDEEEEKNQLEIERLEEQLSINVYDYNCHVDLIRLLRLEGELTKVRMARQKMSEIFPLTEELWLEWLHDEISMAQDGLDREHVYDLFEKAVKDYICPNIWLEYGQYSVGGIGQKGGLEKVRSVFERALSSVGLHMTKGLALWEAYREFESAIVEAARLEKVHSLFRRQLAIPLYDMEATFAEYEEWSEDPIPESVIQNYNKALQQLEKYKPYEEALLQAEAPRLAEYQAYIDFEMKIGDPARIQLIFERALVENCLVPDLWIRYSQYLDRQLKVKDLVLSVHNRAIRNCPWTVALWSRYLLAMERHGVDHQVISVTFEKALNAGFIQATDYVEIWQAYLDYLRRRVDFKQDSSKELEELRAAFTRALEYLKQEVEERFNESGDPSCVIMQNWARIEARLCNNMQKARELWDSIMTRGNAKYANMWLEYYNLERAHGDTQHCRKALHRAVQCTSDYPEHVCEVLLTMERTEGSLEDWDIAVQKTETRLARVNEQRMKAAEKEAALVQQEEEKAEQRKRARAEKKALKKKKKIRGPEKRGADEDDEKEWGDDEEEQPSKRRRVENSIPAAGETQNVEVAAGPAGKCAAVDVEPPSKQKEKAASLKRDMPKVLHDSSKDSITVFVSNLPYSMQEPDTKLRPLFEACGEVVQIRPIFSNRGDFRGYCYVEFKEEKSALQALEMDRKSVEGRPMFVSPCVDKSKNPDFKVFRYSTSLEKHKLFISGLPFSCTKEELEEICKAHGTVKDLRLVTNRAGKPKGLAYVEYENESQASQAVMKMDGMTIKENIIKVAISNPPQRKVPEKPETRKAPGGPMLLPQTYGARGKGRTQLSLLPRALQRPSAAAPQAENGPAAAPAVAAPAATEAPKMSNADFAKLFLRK
WRKY18 full length assumed: WRKY18 full length assumed (Arabidopsis thaliana, UniProt Q9C5T4)
Sequence of UniProt Q9C5T4 (whole entry, looked up): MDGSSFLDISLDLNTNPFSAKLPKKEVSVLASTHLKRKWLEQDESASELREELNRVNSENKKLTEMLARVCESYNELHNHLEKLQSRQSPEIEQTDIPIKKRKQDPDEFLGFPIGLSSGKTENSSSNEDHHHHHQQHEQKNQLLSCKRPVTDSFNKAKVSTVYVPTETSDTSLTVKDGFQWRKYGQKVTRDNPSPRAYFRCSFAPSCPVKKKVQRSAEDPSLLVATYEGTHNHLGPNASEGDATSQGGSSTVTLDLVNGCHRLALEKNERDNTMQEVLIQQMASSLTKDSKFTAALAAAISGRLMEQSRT
Sequence of UniProt Q43349 (whole entry, looked up): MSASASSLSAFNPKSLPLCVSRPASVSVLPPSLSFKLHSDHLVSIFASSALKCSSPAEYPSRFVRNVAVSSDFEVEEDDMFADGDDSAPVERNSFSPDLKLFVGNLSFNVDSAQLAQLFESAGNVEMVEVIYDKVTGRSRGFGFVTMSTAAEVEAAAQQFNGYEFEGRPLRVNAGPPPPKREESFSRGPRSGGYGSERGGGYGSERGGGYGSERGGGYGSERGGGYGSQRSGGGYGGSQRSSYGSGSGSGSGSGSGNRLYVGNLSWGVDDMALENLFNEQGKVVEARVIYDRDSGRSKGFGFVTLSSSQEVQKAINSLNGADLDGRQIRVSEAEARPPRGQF
Sequence of UniProt P55317 (whole entry, looked up): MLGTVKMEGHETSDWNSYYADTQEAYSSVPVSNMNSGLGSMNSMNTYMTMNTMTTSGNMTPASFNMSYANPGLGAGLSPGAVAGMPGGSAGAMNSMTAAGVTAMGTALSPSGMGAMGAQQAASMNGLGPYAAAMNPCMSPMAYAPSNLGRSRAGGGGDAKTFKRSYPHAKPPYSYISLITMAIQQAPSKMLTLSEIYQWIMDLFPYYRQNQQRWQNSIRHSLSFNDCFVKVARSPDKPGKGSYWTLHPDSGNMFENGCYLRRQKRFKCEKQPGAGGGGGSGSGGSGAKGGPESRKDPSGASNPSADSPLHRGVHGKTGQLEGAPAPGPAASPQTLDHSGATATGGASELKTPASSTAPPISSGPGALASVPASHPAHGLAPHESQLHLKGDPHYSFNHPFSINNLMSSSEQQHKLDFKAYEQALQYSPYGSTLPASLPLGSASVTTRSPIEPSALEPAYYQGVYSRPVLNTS
Sequence of UniProt Q9SAH7 (whole entry, looked up): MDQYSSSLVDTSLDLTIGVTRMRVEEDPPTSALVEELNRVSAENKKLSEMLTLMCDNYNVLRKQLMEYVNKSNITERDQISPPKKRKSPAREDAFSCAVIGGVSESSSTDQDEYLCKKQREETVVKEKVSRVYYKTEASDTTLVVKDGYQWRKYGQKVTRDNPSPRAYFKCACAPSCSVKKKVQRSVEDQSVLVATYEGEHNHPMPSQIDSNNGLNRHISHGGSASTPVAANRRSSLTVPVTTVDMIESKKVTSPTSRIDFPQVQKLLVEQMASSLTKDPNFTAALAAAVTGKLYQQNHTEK
Sequence of UniProt P07676 (whole entry, unmodified, looked up): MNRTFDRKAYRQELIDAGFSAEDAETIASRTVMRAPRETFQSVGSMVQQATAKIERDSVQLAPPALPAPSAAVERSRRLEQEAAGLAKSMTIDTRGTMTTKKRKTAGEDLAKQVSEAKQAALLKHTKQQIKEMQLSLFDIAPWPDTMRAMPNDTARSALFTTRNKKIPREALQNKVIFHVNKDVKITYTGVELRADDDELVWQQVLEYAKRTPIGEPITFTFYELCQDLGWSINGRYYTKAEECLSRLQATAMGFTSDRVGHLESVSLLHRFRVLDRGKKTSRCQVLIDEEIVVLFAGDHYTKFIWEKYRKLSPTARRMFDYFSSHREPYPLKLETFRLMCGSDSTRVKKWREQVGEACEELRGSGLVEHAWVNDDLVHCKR
Sequence of UniProt O95905 (whole entry, looked up): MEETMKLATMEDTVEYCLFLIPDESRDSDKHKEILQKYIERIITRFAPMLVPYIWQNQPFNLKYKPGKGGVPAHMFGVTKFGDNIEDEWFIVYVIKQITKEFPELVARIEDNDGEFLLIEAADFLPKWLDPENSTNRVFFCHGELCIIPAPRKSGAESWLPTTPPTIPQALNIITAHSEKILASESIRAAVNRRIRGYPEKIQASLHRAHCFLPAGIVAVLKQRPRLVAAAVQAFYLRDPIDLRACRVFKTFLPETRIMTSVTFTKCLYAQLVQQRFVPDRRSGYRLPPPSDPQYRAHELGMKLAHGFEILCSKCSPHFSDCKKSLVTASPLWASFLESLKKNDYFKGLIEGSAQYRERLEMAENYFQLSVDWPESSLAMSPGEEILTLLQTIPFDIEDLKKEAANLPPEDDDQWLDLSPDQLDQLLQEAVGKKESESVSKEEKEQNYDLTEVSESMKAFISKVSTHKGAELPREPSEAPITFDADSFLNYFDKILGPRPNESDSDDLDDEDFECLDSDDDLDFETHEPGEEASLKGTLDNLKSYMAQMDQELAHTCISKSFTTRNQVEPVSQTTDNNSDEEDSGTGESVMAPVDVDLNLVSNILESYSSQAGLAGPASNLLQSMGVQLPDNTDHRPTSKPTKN
Sequence of UniProt Q9FY93 (whole entry, looked up): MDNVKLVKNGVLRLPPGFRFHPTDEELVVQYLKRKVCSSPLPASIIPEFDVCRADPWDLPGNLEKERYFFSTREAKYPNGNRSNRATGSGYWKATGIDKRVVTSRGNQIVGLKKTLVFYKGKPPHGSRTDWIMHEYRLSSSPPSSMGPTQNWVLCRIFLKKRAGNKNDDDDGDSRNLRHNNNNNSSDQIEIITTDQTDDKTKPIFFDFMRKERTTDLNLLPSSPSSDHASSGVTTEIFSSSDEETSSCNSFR
Sequence of UniProt O24606 (whole entry, looked up): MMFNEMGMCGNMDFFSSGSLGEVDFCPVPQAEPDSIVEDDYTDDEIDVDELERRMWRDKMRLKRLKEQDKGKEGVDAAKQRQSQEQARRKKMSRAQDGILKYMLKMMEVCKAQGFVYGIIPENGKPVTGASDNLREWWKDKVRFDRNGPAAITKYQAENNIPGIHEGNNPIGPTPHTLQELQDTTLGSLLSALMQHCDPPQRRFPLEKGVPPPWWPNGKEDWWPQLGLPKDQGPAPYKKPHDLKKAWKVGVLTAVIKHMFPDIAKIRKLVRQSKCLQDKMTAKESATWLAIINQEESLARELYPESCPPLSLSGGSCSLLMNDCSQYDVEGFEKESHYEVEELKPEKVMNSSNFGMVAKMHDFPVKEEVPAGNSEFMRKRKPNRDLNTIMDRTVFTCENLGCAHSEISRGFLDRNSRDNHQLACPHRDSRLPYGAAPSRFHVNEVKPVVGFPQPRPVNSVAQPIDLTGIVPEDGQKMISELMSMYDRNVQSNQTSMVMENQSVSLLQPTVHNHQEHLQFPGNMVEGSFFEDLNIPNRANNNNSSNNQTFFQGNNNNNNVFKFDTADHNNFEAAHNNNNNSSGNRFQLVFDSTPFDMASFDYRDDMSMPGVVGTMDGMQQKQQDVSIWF

`CAAATTAATCTAAGTCTGGAGCCGCCGGGATGATGAGACTTG (dsDNA)` — result for binding: “binds” (AP2/ERF domain-containing protein (Vitis vinifera, UniProt A0A0F6T258); EMSA; double-stranded DNA, one strand shown).
`ACAAGAACAUCAAAGUCGAAGAACCUUCCG (ssRNA)` — result for binding: “binds” (IGF2BP2 1-599 (Homo sapiens, UniProt Q9Y6M1); pull-down; RNA).
Under binding, `CAGCCAACTAAACTA (dsDNA)` is recorded as “binds” (tnsC 1-503 A225V (Escherichia coli, UniProt P05846); EMSA; double-stranded DNA, one strand shown; with: ATP 0.33 mM).
Under binding, `ACCAAGCGGGTTGCGGAGCCGCCGCCGCCGCCG (dsDNA; blunt)` is recorded as “no binding” (WT1; EMSA; double-stranded DNA, one strand shown).
`DNA GCGTAGCCACGGCTGTCGAC / RNA GUCGACAGCCGUGGCUACGC (DNA:RNA)`: binding “binds” (RNase HIII tandem 1-81 domains L52M (Geobacillus stearothermophilus, UniProt Q6L6Q4); fluorescence anisotropy; DNA-RNA hybrid).
`DNA 1 ACGCTCCCTCGAGGAATTCGGATCCGAATTCCTCGAG / DNA 2 ACGCTCCCTCGAGGAATTCGGATCCGAATTCCTCGAG (dsDNA; 5' 7-nt overhangs, palindromic)` — result for binding: “no binding” (sduA 1-380 (Bacillus cereus, UniProt B7HFR2); fluorescence polarization; double-stranded DNA; with: Mg2+ 5 mM).
`CGGGAACUCGCGUAGACACGCCCG (structured RNA)` — result for binding: “binds” (NFKB1 41-365 (Homo sapiens, UniProt P19838); EMSA; folded RNA).
`TCCAAGCGGGATGCGGAGCCGCCGCCGCCGCCG (dsDNA; blunt)` — result for binding: “no binding” (WT1; EMSA; double-stranded DNA, one strand shown).
For `DNA 1 TAAATTGTAAGCGTTAATATTTTGTTAAAATTCGCGTTAAATTTTTGTTAAATCAGCTCATTTTTTAACCAATAGGCCGAAATCGGCAAAATCCCTTATA / DNA 2 TAACAAAAATTTAACGCGAATTTTAACAAAATATTAACGCTTACAATTT (dsDNA; 3' overhang)`, binding read “binds” (protein full length assumed (Mycosarcoma maydis, UniProt Q8NJ74); EMSA).
Under binding, `AAACGTCCGTGGAAAACC (dsDNA)` is recorded as “binds” (PDR1 1-207 (Saccharomyces cerevisiae, UniProt P12383); competition; double-stranded DNA, one strand shown).
`TATAGCTAGCTAGGATGATGTATAATGGGCTAATTGAGCT (dsDNA)` — result for binding: “no binding” (EIL1A 1-350 (Oryza sativa, UniProt Q10M41); EMSA; double-stranded DNA, one strand shown).
`UACAGAG (ssRNA)` — result for binding: “no binding” (SART3; ITC; RNA).
Under binding, `GTTACT (ssDNA)` is recorded as “binds” (CP29A 97-176 (Arabidopsis thaliana, UniProt Q43349); NMR titration; single-stranded DNA).
For `DNA 1 ATACCAGCTTATTCAATT / DNA 2 ATTGCTCCTCAGCAATTGAATAAGCT (dsDNA; 13 bp duplex, 5' overhangs, 5'-NH2)`, binding read “no binding” (MUC16 1-14451 (Homo sapiens, UniProt Q8WXI7); magnetic bead strand displacement; double-stranded DNA).
For `ATCCGAGATGGTACTTTGTGTCTCCTGCTCTGTCAGCAGGGCACTGTACTTGCTGATACCAGGGAATGTTTGTTCTTAAATACCATCATTCCGGACGTGTTTGCCTTGGCCAGTTTTCCATGTACATGCAGAAAGAAGTTTGGACTGATCAATACAGTCCTCTGCCTTTAAAGCAATAGGAAAGAT (dsDNA)`, binding read “binds” (FOXA1 141-274 (Homo sapiens, UniProt P55317); EMSA; double-stranded DNA, one strand shown).
Under binding, `TGTTTT (ssDNA)` is recorded as “binds” (CP29A 255-334 (Arabidopsis thaliana, UniProt Q43349); NMR titration; single-stranded DNA).
For `CGCCATGCTGATCCGTGTGGTGTGTGTGGG (ssDNA (Saccharomyces cerevisiae))`, binding read “binds” (Rfa1/Rfa2/Rfa3 (Saccharomyces cerevisiae); BLI; single-stranded DNA).
For `GTCTTCAGCTCGGACTTCGGAAGAATAAACAGGCGTAGAAGTGATAACGTTCTTAATACGAAAATTAAGCTCTGTCTCCGTTTCGTGCTACGGTTAGAAAGGCGAAAGCCCCAAGAAATACAAGCACACCTGATAAGCGAGATTTAAGGATAACAGCGAAATTCAATAGGGTCTGAATTTCCAAACTAGGTTAAATGCCACGACGTTTTATTGTTG (dsDNA)`, binding read “binds” (ihfA/ihfB 1-98; 1-95 (Aggregatibacter actinomycetemcomitans); EMSA; double-stranded DNA, one strand shown).
Under binding, `TTTGAGAAAGAATCAAGAAAAGTTTCGGACTACTCTCTTAGATAAA (dsDNA)` is recorded as “binds” (ORC1-type DNA replication protein full length assumed (Saccharolobus islandicus, UniProt F0NF18); EMSA; double-stranded DNA, one strand shown).
`TCTCAAGATCAAAACATTGTCGAATCACGGATCAAAATA (dsDNA)` — result for binding: “binds” (GATA15 full length assumed (Oryza sativa, UniProt Q6L5E5); EMSA; double-stranded DNA, one strand shown).
Under binding, `CCGCCGCTCACGTGGCGAACT (dsDNA)` is recorded as “no binding” (Clk 1-71 S13D (Drosophila melanogaster, UniProt O61735); BLI; double-stranded DNA, one strand shown).
Under binding, `TCGGTACCCGTGGATC (dsDNA)` is recorded as “binds” (protein full length assumed D348A (Bacillus pumilus, UniProt A3FMN7); EMSA; double-stranded DNA, one strand shown).
Under binding, `TTTTTTTTTTTTTTTTTTTTTTTTTTTTTTTTTTTTTTTTTTTTTTTTTTTTTTTTTTTTTTTTT (ssDNA)` is recorded as “binds” (dinG full length assumed (Escherichia coli, UniProt P27296); EMSA; single-stranded DNA; with: ATPγS).
`CTGAAGTTTGGTCAAAATAATACGATGAATTTAATATATAAGAGACAAAATTGTTATTGTCGTTTAGGTGGTATCCATATTTCAATATAGTTTGTGTGAATACAGATATAAAAATGGTTATTGTTGTGTATATGATGCAGTTG (dsDNA)`: binding “no binding” (WRKY40 full length assumed (Arabidopsis thaliana, UniProt Q9SAH7); EMSA; double-stranded DNA, one strand shown).
`AAAAATGTTTATATATGAAGCATAAA (dsDNA)` — result for binding: “binds” (NAC083 (Arabidopsis thaliana, UniProt Q9FY93); EMSA; double-stranded DNA, one strand shown).
`CCAATGTGTAACAAGTAACTTATGACAACACAAATTTCTTCTTTGGTAGAAAACAAACGGGTAAGTAAAAAGAAAAGAAAAAAAGAAGTGAGTGAGAAGAGAGTGTAAGTATAAATAAAAGAAGCACCGCCCTAATCGACCATTCACAACGATGACATTCAAACACTCTTCAG (dsDNA)`: binding “no binding” (WRKY18 full length assumed; EMSA; double-stranded DNA, one strand shown).
`AGACTTTCCCCCATTGGA (dsDNA)` — result for binding: “no binding” (Auxin response factor 1-610 (Capsicum annuum, UniProt A0A1U8F1G4); EMSA; double-stranded DNA, one strand shown).
`CCTGCGGTATTGACACTTGAGGGGCGCGACTACTGACAGATGAGGGGCGCGATCCTTGACACTTGAGGGGCAGAGTGATGACAGATGAGGGGCGCACCTATTGACATTTGAGGGGCTGTCCACAGGCAG (dsDNA)`: binding “no binding” (trfA 98-382 G254D/S267L/R347E (Escherichia coli, UniProt P07676); SPR; double-stranded DNA, one strand shown).
Under binding, `TTTTTTTTTTCGTATGGCACGGGGTTGGTGTTGGGTTGG (ssDNA; 5'-phosphate; G-quadruplex)` is recorded as “no binding” (gox (Aspergillus niger, UniProt P13006); electrolyte-gated transistor sensor; single-stranded DNA).
For `CGTGCAGTACGCCAACCTTTCTCATGCGCTGCCCCTCTTA (ssDNA; 5' thiol)`, binding read “binds” (TNNI3 2-210 (Homo sapiens, UniProt P19429); strand displacement by complementary DNA, DPV; single-stranded DNA; electrochemical aptasensor).
`CTCGTCGTGCGCCAACTGCGAGCGAGGGAG (dsDNA)`: binding “binds” (MYB2 full length assumed (Oryza sativa, UniProt Q10MB4); competition; double-stranded DNA, one strand shown).
Under binding, `GGGTTGCGGCCGCTTGGG (dsDNA)` is recorded as “binds” (PARP1 1-1014 (Homo sapiens, UniProt P09874); fluorescence polarization; double-stranded DNA, one strand shown; stopped-flow).
Under binding, `AAATTTGAACCTCTGTCATTGTACAGAAAAATCGTAATAACCC (dsDNA)` is recorded as “binds” (EIN3 1-628 (Arabidopsis thaliana, UniProt O24606); EMSA; double-stranded DNA, one strand shown).
For `AAATGTAGATTGAAGATGTTGACTTTCTTCACCCCAGTCTATTA (dsDNA)`, binding read “binds” (WRKY domain-containing protein 1-700 (Vitis vinifera, UniProt A0ABY9BSD8); EMSA; double-stranded DNA, one strand shown).
For `TTAACATGCTTCCAAAATACAAATTACAA (dsDNA)`, binding read “binds” (NAC2 1-315 (Actinidia chinensis, UniProt A0A075EAR8); EMSA; double-stranded DNA, one strand shown).
For `TAAGGCGCAACACAACGTCTCGTACGGTTGTAG (dsDNA; blunt)`, binding read “binds” (SPL9 full length assumed (Oryza sativa, UniProt Q6I576); EMSA; double-stranded DNA, one strand shown).
`TTGGGCGAGCCGCAAGTTGTGTGGGGGAATTGATTG (dsDNA)` — result for binding: “binds” (NAC067 1-276 (Oryza sativa, UniProt Q7EZT1); EMSA; double-stranded DNA, one strand shown).
`AAAAAAAA (ssRNA)`: binding “binds” (KHDRBS2 50-160 (Homo sapiens, UniProt Q5VWX1); protein microarray; RNA).
For `GAUAC (ssRNA)`, binding read “no binding” (SART3; ITC; RNA).
Under binding, `TTATGGGCGTGGGCCCTACGCGTGTGCGCACGAGGAGGTGAGGTGA (dsDNA)` is recorded as “no binding” (Protein BZR1 homolog 1-304 (Oryza sativa, UniProt A0A0P0UYT3); EMSA; double-stranded DNA, one strand shown).
`GACAAAAGATGTTGACCTTCACGCCTCTCTTCTTAGACCCCACGCGCCACACTCTCACGGTGAGAACATAAATATCAATCTCTCTTTTACCGCCTCCTACCCATTTATCTCTCTCTTTCTCAAAACCTTTCAGTCAAAATTCTCC (dsDNA)`: binding “binds” (WRKY18 full length assumed; EMSA; double-stranded DNA, one strand shown).
For `GATTTTATTTCTTTTATGTTTATGTGTCATCTTGAAACTACCACCGAATGGC (dsDNA)`, binding read “binds” (O2 full length assumed (Zea mays, UniProt P12959); competition; double-stranded DNA, one strand shown; unlabeled DNA competitor).
For `GGTTAGGGTTAGGGTTAGGGTTAG (ssDNA; 5'-phosphate)`, binding read “binds” (Pot1b 1-300 (Mus musculus, UniProt H7BX60); EMSA; single-stranded DNA).
`GATTTGCTAAAGATACTTGTCCTGTGGAA (dsDNA)` — result for binding: “no binding” (Uncharacterized protein 1-360 (Prunus persica, UniProt M5W9R3); competition; double-stranded DNA, one strand shown; with: cold mutant probe).
`AGCGUGCCGUGCAACAACAUUACAAUUUACAAUCCACCAUGG (ssRNA)`: binding “no binding” (ECD 439-644 (Homo sapiens, UniProt O95905); EMSA; RNA).
Under binding, `ATCTTTTTTACTCTAGGAAGTTGACATTCTTTGTCCATTTCCAAAAGAA (dsDNA)` is recorded as “binds” (WRKY23 (Oryza sativa, UniProt Q7E0X1); EMSA; double-stranded DNA, one strand shown).
Under binding, `GGGTTCCCGTTGCCACCGGGGTTCCCGTTGCCACCGGGGTTCCCGTTGCCACCG (dsDNA)` is recorded as “binds” (Transcription factor MYB80 full length assumed (Triticum aestivum, UniProt A0A3B6C8C3); EMSA; double-stranded DNA, one strand shown).

A few entries again:
`CTGAAGTTTGGTCAAAATAATACGATGAATTTAATATATAAGAGACAAAATTGTTATTGTCGTTTAGGTGGTATCCATATTTCAATATAGTTTGTGTGAATACAGATATAAAAATGGTTATTGTTGTGTATATGATGCAGTTG (dsDNA)`: binding “no binding” (WRKY40 full length assumed (Arabidopsis thaliana, UniProt Q9SAH7); EMSA; double-stranded DNA, one strand shown).
For `ATCCGAGATGGTACTTTGTGTCTCCTGCTCTGTCAGCAGGGCACTGTACTTGCTGATACCAGGGAATGTTTGTTCTTAAATACCATCATTCCGGACGTGTTTGCCTTGGCCAGTTTTCCATGTACATGCAGAAAGAAGTTTGGACTGATCAATACAGTCCTCTGCCTTTAAAGCAATAGGAAAGAT (dsDNA)`, binding read “binds” (FOXA1 141-274 (Homo sapiens, UniProt P55317); EMSA; double-stranded DNA, one strand shown).
Under binding, `TCGGTACCCGTGGATC (dsDNA)` is recorded as “binds” (protein full length assumed D348A (Bacillus pumilus, UniProt A3FMN7); EMSA; double-stranded DNA, one strand shown).
For `GAUAC (ssRNA)`, binding read “no binding” (SART3; ITC; RNA).
For `DNA 1 ATACCAGCTTATTCAATT / DNA 2 ATTGCTCCTCAGCAATTGAATAAGCT (dsDNA; 13 bp duplex, 5' overhangs, 5'-NH2)`, binding read “no binding” (MUC16 1-14451 (Homo sapiens, UniProt Q8WXI7); magnetic bead strand displacement; double-stranded DNA).
`ACAAGAACAUCAAAGUCGAAGAACCUUCCG (ssRNA)` — result for binding: “binds” (IGF2BP2 1-599 (Homo sapiens, UniProt Q9Y6M1); pull-down; RNA).
